Measurements collected from several papers.
Each line is one published result; not all experiments were run side by side. “And” joins repeats or separate records; there may be more than shown. ± marks the error that the study gave.

With `O=C1NC(=O)c2cc(Nc3ccccc3)c(Nc3ccccc3)cc21` the half-life was 0.0185 h (substrate depletion; phenobarbital/β-naphthoflavone-induced rat liver microsomes; 1 µM, pH 7.4, 37 °C, added: NADPH).
`C[C@H](N)C(=O)N[C@@H](C[SeH])C(=O)N1CCC[C@H]1C(=O)N[C@@H](CO)C(=O)N[C@@H](CC(=O)O)C(=O)N[C@@H](Cc1ccc(O)cc1)C(=O)N[C@@H](C[SeH])C(=O)N[C@@H](CCCCN)C(=O)N[C@@H](CCCNC(=N)N)C(=O)N[C@@H](CCCCN)C(=O)NCC(=O)N[C@@H](C[SeH])C(=O)NCC(N)=O` gave a half-life of 96 ± 12 h (pH 7.5, 4 °C, added: EDTA 100 equiv).
`CCCCC[C@H](O)CC[C@@H]1[C@H]2Cc3cccc(OCC(=O)O)c3C[C@H]2C[C@H]1O` has a half-life of 0.67 h (LC-MS/MS; Japanese PAH patients, plasma; inhaled, 54 µg, body weight ≥56.7 kg, geometric mean).
For `C[C@H](NC(=O)/C(C#N)=C/c1cccc(Br)n1)c1ccccc1`, the half-life was 1.1 h (LC-MS/MS; patients, plasma; oral, 2 mg/kg, cycle 1 day 8).
For `OC[C@H]1O[C@@H](c2cc(Cc3ccc(C4CC4)cc3)c(Cl)c3c2CCO3)[C@H](O)[C@@H](O)[C@@H]1O`, the half-life was 12.6 ± 4.04 h (healthy Korean adults, fasted, plasma; oral, 0.3 mg single dose, separate tablets, added: co-administered drug 50 mg).
`C[C@@H](NC(=O)N1C(=O)[C@H](Cc2ccnc(N)c2)[C@H]1C(=O)O)C1CCCCC1` has a half-life of 1.27 h (healthy adult Chinese volunteers, plasma; continuous intravenous infusion, 1.0 mg/kg/h, day 6).
With `COc1ccc([C@@H](O)c2cc(-c3ncnc4cc(N5CCOCC5)ccc34)c(F)cc2Cl)nn1` the half-life was 5.4 h (geometric mean; healthy volunteers, plasma; oral, 100 mg, fasted tablet).
`Cc1c(C(=O)O)ccc2c3n(nc12)[C@@H]1[C@H](C3)N(CC2CC2)[C@@]2(C(=O)Nc3cc(Cl)ccc32)[C@H]1c1cccc(Cl)c1F` has a half-life of 42 h (cancer patients; oral, 45 mg every 3 weeks).
`C[C@@H](O)[C@H](NC(=O)[C@H](Cc1ccc(O)cc1)NC(=O)[C@H](Cc1ccc(O)cc1)NC(=O)[C@H](CO)NC(=O)[C@H](CCCNC(=N)N)NC(=O)[C@H](Cc1c[nH]cn1)NC(=O)[C@@H](N)Cc1c[nH]c2ccccc12)C(=O)N[C@@H](Cc1c[nH]c2ccccc12)C(=O)N[C@@H](CC(N)=O)C(N)=O` has a half-life of 0.25 to 0.333 h (human serum 50%; 20 µM, 37 °C).
With `O=C(Oc1coc(CSc2ncccn2)cc1=O)c1ccc([N+](=O)[O-])cc1` the half-life was 0.035 h (mouse plasma; 37 °C).
For `N#Cc1cccc(-c2ccc3ncc(-c4cc(F)cc(F)c4)c(N4CCC(N)CC4)c3c2)c1O`, the half-life was 31 h (healthy male, plasma total radioactivity; oral, 20 mg, geometric mean).
`OCc1ccc(-c2nn(Cc3ccccc3)c3ccccc23)o1` has a half-life of < 0.0833 h (human liver microsomes; added: NADPH and UDPGA).
`COc1ccc2[nH]c([S+]([O-])Cc3ncc(C)c(OC)c3C)nc2c1` (stereo not shown) has a half-life of 1.08 ± 0.57 h (healthy Chinese volunteers, plasma; oral, 20 mg, fasted, all CYP2C19 genotypes).
`CC(C)C[C@H](NC(=O)[C@@H](N)[C@@H](C)O)C(=O)N[C@@H](CCC(N)=O)C(=O)N1CCC[C@H]1C(=O)N1CCC[C@H]1C(=O)N[C@@H](C)C(=O)N[C@@H](CO)C(=O)N[C@@H](CO)C(=O)N[C@@H](CCCNC(=N)N)C(=O)N[C@@H](CCCNC(=N)N)C(=O)N[C@@H](CCCNC(=N)N)C(=O)N[C@@H](Cc1c[nH]cn1)C(=O)N[C@@H](Cc1ccccc1)C(=O)N[C@@H](Cc1c[nH]cn1)C(=O)N[C@@H](Cc1c[nH]cn1)C(=O)N[C@@H](C)C(=O)N[C@@H](CC(C)C)C(=O)N1CCC[C@H]1C(=O)N1CCC[C@H]1C(=O)N[C@@H](C)C(=O)N[C@@H](CCCNC(=N)N)C(=O)O` gave a half-life of < 0.167 h (LC-MS; mouse plasma 100%; 37 °C).
With `CCCCCCCCCC(=O)N[C@@H](Cc1c[nH]c2ccccc12)C(=O)N[C@H](CC(N)=O)C(=O)N[C@@H](CC(=O)O)C(=O)N[C@@H]1C(=O)NCC(=O)N[C@@H](CCCN)C(=O)N[C@@H](CC(=O)O)C(=O)N[C@H](C)C(=O)N[C@@H](CC(=O)O)C(=O)NCC(=O)N[C@H](CO)C(=O)N[C@@H]([C@H](C)CC(=O)O)C(=O)N[C@@H](CC(=O)c2ccccc2N)C(=O)O[C@@H]1C` the half-life was > 4 h (human plasma; 1 µM, up to 240 min, pH 7.4, 37 °C).
For `CCN1CCN(Cc2ccc(Nc3nc4ccc(Oc5ccnc(NC(=O)C6CCN(C)CC6)c5)cc4n3C)cc2C(F)(F)F)CC1`, the half-life was ~5 h (plasma).
For `N#Cc1ccc(Nc2nc(N)cc(Oc3c(F)cc(-c4ccc(C#N)cc4)cc3F)n2)cc1`, the half-life was 23.8 h (human plasma, diluted in PBS; 1 µM).
For `CC(C)C[C@@H](NC(=O)[C@H](Cc1ccccc1)NC(=O)CNC(=O)[C@@H](C)NC(=O)[C@H](Cc1ccc(O)cc1)NC(=O)[C@H](C)NC(=O)c1ccc[n+](C)c1)C(=O)O`, the half-life was 16.1 h (HPLC-UV; 20% rat brain homogenate; pH 7.4).
`COc1ccc(-n2nc(C(=O)NC(=O)OCc3cc(C(=O)O)ccc3OP(=O)(O)O)c3c2C(=O)N(c2ccc(N4CCCCC4=O)cc2)CC3)cc1` has a half-life of > 2 h (simulated gastric fluid; 10 µM, 2 h incubation, pH 1.2).
The half-life of `C[C@H]1CN(C(=O)CC#N)[C@]12CCN(c1ncnc3[nH]ccc13)C2` is reported as 4 h (healthy Japanese males, plasma; oral, 50 mg single dose).
For `CC(=O)O[C@H]1C(=O)[C@@]2(C)[C@H]([C@H](OC(=O)c3ccccc3)[C@]3(O)C[C@H](OC(=O)[C@H](OC(=O)OCc4cc(C(=O)O)ccc4OP(=O)(O)O)[C@@H](NC(=O)c4ccccc4)c4ccccc4)C(C)=C1C3(C)C)[C@]1(OC(C)=O)CO[C@@H]1C[C@@H]2O`, the half-life was > 2 h (HBSS; 10 µM, 2 h incubation, pH 6.5).
`O=Cc1cc2ccccc2cc1C=O` gave a half-life of < 0.0167 h (reactivity with N-α-acetyl-lysine, HPLC-MS; BBS buffer with acetonitrile; 1 mM, pH 10.2).
For `C=C1CN2CCC[C@@]2(COc2nc(N3CCN(C(=O)/C=C/c4cc(CN(C)C)c(C)cn4)C[C@@H]3C)c3cc(Cl)c(-c4nc(N)cc(C)c4C(F)(F)F)c(F)c3n2)C1`, the half-life was > 9 h (1 µM, pH 7.4, added: 5 mM cysteine).
`O=C1Nc2c(C(F)(F)F)cccc2[C@@]1(c1ccc(O)cc1)N1CCC(F)(F)C1` has a half-life of 0.167 to 1.28 h (simulated gastric fluid with pepsin; 100 µM, pH 1.2, 37 °C).
`OCc1nc2ccc(NCc3ccc(C(F)(F)F)cc3)cc2[nH]1` gave a half-life of 3.22 h and 3.21 h (human liver S9; 1 µM, pH 7.4).
With `CCCCCCNC(=O)n1cc(C(F)(F)F)c(=O)[nH]c1=O` the half-life was 0.0167 h (mouse plasma; 0.1 mM, 37 °C).
`COC(=O)[C@H](N)CSSC[C@@H](N)C(=O)OC` gave a half-life of 0.473 h (human plasma; 100 µM, 37 °C).
`NC(=O)Nc1ccc(OC(F)(F)Cl)cc1` gave a half-life of ≥ 240 h (PBS with 10% acetonitrile; 250 µM, pH 7.4, added: GSH 5 mM).
`COCCOc1cnc2ccn([C@H](C)c3nnc4c(F)cc(-c5cnn(C)c5)cn34)c(=O)c2c1` gave a half-life of 6.7 h (patients, plasma; oral, 100 mg once daily, day 1).
The half-life of `CC1=NN(/C(=N\c2ccccc2)Nc2nnc(C)s2)C(c2ccc(C)cc2)S1` (stereo not shown) is reported as 0.0883 h (plasma stability; human plasma).
`C[C@H](NC(=O)[C@H](C)NC(=O)[C@H](CCCNC(=N)N)NC(=O)[C@@H]1CCCN1C(=O)[C@H](CCCNC(=N)N)NC(=O)CNC(=O)c1ccc2c(c1)C(=O)OC21c2ccc(O)cc2Oc2cc(O)ccc21)C(=O)N[C@H](C(=O)N[C@@H](Cc1ccccc1)C(=O)N[C@@H](C)C(=O)N[C@@H](CCC(=O)O)C(=O)NCC(N)=O)[C@@H](C)O` gave a half-life of 0.25 ± 0.0167 h (CE-LIF; HeLa cytosolic lysate; 37 °C).
`CN(C)c1ccc(Nc2nc(-c3ccncc3)nc3c2CC(N)CC3)cc1` (stereo not shown) gave a half-life of > 1 h (mouse liver microsomes; 4.6 µM, pH 7.4).
`Oc1ccc([C@@H](O)c2cc(-c3ncnc4cc(N5CCOCC5)ccc34)c(F)cc2Cl)nn1` has a half-life of 3.44 h (geometric mean; healthy volunteers, plasma; oral, 100 mg, high-fat fed tablet).
`O=c1c2cc(Cl)ccc2[nH]c(=S)n1Cc1cccnc1` gave a half-life of > 6.22 h (plasma stability; mouse plasma).
The half-life of `CC(C)C(=O)Nc1ccc([N+](=O)[O-])c(C(F)(F)F)c1` is reported as 0.0317 h (substrate depletion; phenobarbital/β-naphthoflavone-induced rat liver microsomes; 1 µM, pH 7.4, 37 °C, added: NADPH).
`Cn1c(=O)n(C2CCC(=O)NC2=O)c2cccc(C#CCOC3CCN(C[C@H]4CC[C@H](n5cc(NC(=O)c6cnn7ccc(N8C[C@H]9C[C@@H]8CO9)nc67)c(C(F)F)n5)CC4)CC3)c21` (stereo partly shown) has a half-life of 2.3 h (H/D exchange; 0.5 µM, pH 7.8, mean of replicates).
With `Ic1nccs1` the half-life was 54.8 h (PBS with 5% acetonitrile; 250 µM, pH 7.4, no glutathione).
The half-life of `Cc1ccc(NC(=O)c2ccc(CN3CCN(C)CC3)cc2)cc1Nc1nccc(-c2cncc(-c3oncc3C)c2)n1` is reported as 24.6 ± 4.7 h (Parkinson's disease patients, plasma; oral, 100 mg/day, 7 days, steady state).
With `CCCCCCCCCCCCCCCC(=O)N[C@@H](CCC(=O)NCCCC[C@@H]1NC(=O)[C@H]([C@@H](C)CC)NC(=O)[C@@H](NC(=O)[C@@H]2CCCN2C(=O)[C@H](Cc2ccccc2)NC(=O)[C@H](Cc2c[nH]cn2)NC(=O)[C@@H](NC(=O)[C@H](CC(=O)O)NC(=O)CC(C)C)[C@@H](C)O)CSSC[C@@H](C(=O)N[C@@H](CCCCN)C(N)=O)NC(=O)CNC(=O)[C@H](CCCCN)NC(=O)[C@H](CO)NC(=O)[C@H](CCCNC(=N)N)NC(=O)[C@@H]2CCCN2C(=O)[C@H](CCC(=O)O)NC(=O)[C@H](Cc2ccccc2)NC1=O)C(=O)O` the half-life was 57.1 ± 73 h (healthy volunteers, plasma; subcutaneous, 60 mg single, lyophilised formulation).
The half-life of `Cc1ccc(OCCN)cc1C(=O)N[C@H](C)c1cccc(-c2ccoc2)c1` is reported as > 0.833 h (mouse liver microsomes; 1 µM).

Excerpt of the above:
For `OC[C@H]1O[C@@H](c2cc(Cc3ccc(C4CC4)cc3)c(Cl)c3c2CCO3)[C@H](O)[C@@H](O)[C@@H]1O`, the half-life was 12.6 ± 4.04 h (healthy Korean adults, fasted, plasma; oral, 0.3 mg single dose, separate tablets, added: co-administered drug 50 mg).
`C[C@@H](NC(=O)N1C(=O)[C@H](Cc2ccnc(N)c2)[C@H]1C(=O)O)C1CCCCC1` has a half-life of 1.27 h (healthy adult Chinese volunteers, plasma; continuous intravenous infusion, 1.0 mg/kg/h, day 6).
With `COc1ccc([C@@H](O)c2cc(-c3ncnc4cc(N5CCOCC5)ccc34)c(F)cc2Cl)nn1` the half-life was 5.4 h (geometric mean; healthy volunteers, plasma; oral, 100 mg, fasted tablet).
